{"data": "Measured values collected from several papers", "note": "Every numbered part comes from another study and shows a few of its results, in no order."}
{"data": "Set 1", "target": "Sal-like protein 4, full length isoform A (SALL4, Homo sapiens, UniProt Q9UJQ4, residues 1-1053)", "method": "universal PBM", "molecule type": "double-stranded DNA, one strand shown", "medium": "in vitro", "concentration": "600 nM", "notes": "8-mer, flanks averaged, mean of replicates", "reading": "higher = stronger binding", "sequence of UniProt Q9UJQ4 (whole entry, looked up)": "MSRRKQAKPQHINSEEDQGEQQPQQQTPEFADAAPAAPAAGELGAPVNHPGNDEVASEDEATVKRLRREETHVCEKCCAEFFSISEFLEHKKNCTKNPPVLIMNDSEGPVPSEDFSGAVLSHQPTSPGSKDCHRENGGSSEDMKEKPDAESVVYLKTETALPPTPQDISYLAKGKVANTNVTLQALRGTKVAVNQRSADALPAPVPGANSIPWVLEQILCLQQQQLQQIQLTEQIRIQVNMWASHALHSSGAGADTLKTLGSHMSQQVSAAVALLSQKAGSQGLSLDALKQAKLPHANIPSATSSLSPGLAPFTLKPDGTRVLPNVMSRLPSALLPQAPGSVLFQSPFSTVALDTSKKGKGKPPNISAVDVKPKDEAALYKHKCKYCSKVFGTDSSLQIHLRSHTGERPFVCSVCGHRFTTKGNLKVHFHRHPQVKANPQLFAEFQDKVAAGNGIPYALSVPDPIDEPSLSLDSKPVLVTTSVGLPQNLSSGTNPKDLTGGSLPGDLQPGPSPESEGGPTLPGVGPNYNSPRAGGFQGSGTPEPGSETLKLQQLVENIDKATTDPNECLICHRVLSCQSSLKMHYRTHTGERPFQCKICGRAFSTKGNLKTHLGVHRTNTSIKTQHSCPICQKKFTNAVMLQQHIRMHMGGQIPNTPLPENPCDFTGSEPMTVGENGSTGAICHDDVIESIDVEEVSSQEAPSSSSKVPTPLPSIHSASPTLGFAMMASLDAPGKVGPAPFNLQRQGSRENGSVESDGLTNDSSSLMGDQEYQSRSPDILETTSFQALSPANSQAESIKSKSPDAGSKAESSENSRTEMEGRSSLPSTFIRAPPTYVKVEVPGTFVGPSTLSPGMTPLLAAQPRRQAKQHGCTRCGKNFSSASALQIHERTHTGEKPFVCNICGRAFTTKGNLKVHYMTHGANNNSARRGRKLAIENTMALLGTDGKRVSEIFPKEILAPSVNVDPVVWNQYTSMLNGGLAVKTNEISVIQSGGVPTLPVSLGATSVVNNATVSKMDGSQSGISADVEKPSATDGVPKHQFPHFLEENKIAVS"}
{"Oligonucleotide": "ATTGAGAG", "E-score": 0.0672}
{"Oligonucleotide": "AGTGGTCA", "E-score": -0.161}
{"Oligonucleotide": "CAGCCTGC", "E-score": -0.232}
{"Oligonucleotide": "AGCCACAT", "E-score": 0.0885}
{"Oligonucleotide": "ATACGCAC", "E-score": 0.132}
{"Oligonucleotide": "ACAAATCT", "E-score": 0.21}
{"Oligonucleotide": "AAGTGGTG", "E-score": 0.0138}
{"data": "Set 2", "target": "Centromere-binding protein 1, full length, His-tagged (CBF1, Saccharomyces cerevisiae, UniProt P17106, residues 1-351)", "method": "competition protein-binding microarray", "molecule type": "double-stranded DNA, one strand shown", "medium": "in vitro", "concentration": "2 µM", "notes": "whole 60-bp probe, lowest competitor level", "with": "Pho4 competitor, 0.05 µM", "reading": "higher = stronger binding", "constant ends, left off below": "… GTCTTGATTCGCTTGACGCTGCTG", "sequence of UniProt P17106 (whole entry, looked up)": "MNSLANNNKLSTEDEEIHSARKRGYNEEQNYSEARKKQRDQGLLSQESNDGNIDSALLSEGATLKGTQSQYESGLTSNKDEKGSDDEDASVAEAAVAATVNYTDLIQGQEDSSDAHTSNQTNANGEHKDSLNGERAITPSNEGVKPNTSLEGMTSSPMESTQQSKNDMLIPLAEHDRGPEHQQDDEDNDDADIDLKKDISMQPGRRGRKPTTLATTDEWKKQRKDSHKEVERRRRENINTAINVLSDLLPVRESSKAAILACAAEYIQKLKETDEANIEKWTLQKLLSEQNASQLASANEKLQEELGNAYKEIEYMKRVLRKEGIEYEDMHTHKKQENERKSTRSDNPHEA"}
{"Oligonucleotide": "CTAATACCCGGAAGTCGCGTGATGGTTTTTTTTTTC", "fluorescence intensity [a.u.]": 462}
{"Oligonucleotide": "GTCTTGTCTCATTGGATGGTGGGTGTCCCCACTTCA", "fluorescence intensity [a.u.]": 74.5}
{"Oligonucleotide": "CCGAGTATGTATCCACACGTTGGTACAGGGCGCCAG", "fluorescence intensity [a.u.]": 60.9}
{"Oligonucleotide": "TCCAACAAATAAAGTTCCGTGATGGTTTAATGGTCA", "fluorescence intensity [a.u.]": 94.1}
{"Oligonucleotide": "CTTTCCCGATCTTGCCCGGTGGGTGTAGCACATTTG", "fluorescence intensity [a.u.]": 77.8}
{"Oligonucleotide": "CTAACGAAGGTTTGCCACGTGTTTTACAAGCCAAGT", "fluorescence intensity [a.u.]": 883}
{"Oligonucleotide": "TGCGCAACAACTTGTCCGGTGGGTGTATGTCTAGAA", "fluorescence intensity [a.u.]": 63.6}
{"Oligonucleotide": "CCGATCTCTTTCCGACACGTGGAGGAGACATGAAAG", "fluorescence intensity [a.u.]": 649}
{"data": "Set 3", "target": "TAR DNA-binding protein 43, full length, His tag (TARDBP, Homo sapiens, UniProt Q13148, residues 1-414)", "method": "RNA Bind-n-Seq", "molecule type": "RNA", "medium": "in vitro", "concentration": "20 nM", "notes": "6-mer, flanks averaged, single round", "with": "150 mM KCl", "baseline": "input library", "reading": "higher = stronger binding"}
{"Oligonucleotide": "UCCAAG", "6-mer enrichment (R)": 0.709}
{"Oligonucleotide": "UGGCCC", "6-mer enrichment (R)": 0.799}
{"Oligonucleotide": "UGAUAA", "6-mer enrichment (R)": 0.686}
{"Oligonucleotide": "UCCCCG", "6-mer enrichment (R)": 0.676}
{"Oligonucleotide": "CGCCGU", "6-mer enrichment (R)": 0.766}
{"Oligonucleotide": "UGUGGA", "6-mer enrichment (R)": 1.49}
{"Oligonucleotide": "CCUCCC", "6-mer enrichment (R)": 0.641}
{"data": "Further values, each from its own experiment"}
{"Substance": "PhoQ, residues 284 288 289 292 302 303 SSCLAV", "target": "PhoP, residues 12 14 15 18 19 SQCLL (Escherichia coli, UniProt P23836)", "assay": "Sort-seq, refers to: YFP reporter", "system": "E. coli", "setting": "PhoQ-PhoP variant library, with: 10 µM Mg2+", "scale": "baseline: high Mg2+ state, higher = stronger signaling", "quantity": "fold induction", "result": 8.53}
{"note": "Repeated from above (set 3):"}
{"Oligonucleotide": "UGUGGA", "6-mer enrichment (R)": 1.49}
{"Oligonucleotide": "CCUCCC", "6-mer enrichment (R)": 0.641}
